Measurements collected from several papers.
Parts stem from different laboratories: compare values within a part only. Changes are numbered by the printed parent chain.

Block 1
Target: DBP, bZIP domain (human)
Method: DHFR protein complementation
Sample: yeast
Notes: single substitutions, most at no-binding floor
Relative to: wild-type JUN-FOS pair
Reading: higher = stronger binding
Parent: JUN, bZIP domain (human); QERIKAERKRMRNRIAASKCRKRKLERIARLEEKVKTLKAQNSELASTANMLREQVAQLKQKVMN; partner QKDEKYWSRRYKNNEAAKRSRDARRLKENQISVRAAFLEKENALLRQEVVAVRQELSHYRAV
With `L31N` the binding fitness was -1.47 natural log.
`S47G` gave a binding fitness of -1.49 natural log.
The binding fitness of `E32F` is reported as -1.48 natural log.
`N42H` gave a binding fitness of -1.44 natural log.
For `E32K`, the binding fitness was -1.55 natural log.
With `L52A` the binding fitness was -1.33 natural log.
With `A49L` the binding fitness was -1.46 natural log.
`V56Q` has a binding fitness of -1.54 natural log.
With `L59H` the binding fitness was -1.61 natural log.
With `N42Y` the binding fitness was -1.47 natural log.
The binding fitness of `A46R` is reported as -1.36 natural log.
`E54G` has a binding fitness of -1.43 natural log.
`S47Q` has a binding fitness of -1.4 natural log.
`K36V` gave a binding fitness of -1.51 natural log.
`E44L` has a binding fitness of -1.44 natural log.
`S47C` gave a binding fitness of -1.39 natural log.
`L52N` gave a binding fitness of -1.51 natural log.
With `T37E` the binding fitness was -1.44 natural log.
With `E33L` the binding fitness was -1.39 natural log.
`V56A` has a binding fitness of -1.38 natural log.
With `I28S` the binding fitness was -1.39 natural log.
`A57W` has a binding fitness of -1.51 natural log.
The binding fitness of `S47N` is reported as -1.49 natural log.
With `A40H` the binding fitness was -1.54 natural log.
For `A29I`, the binding fitness was -1.26 natural log.

Block 2
Target: RNA binding protein fox-1 homolog 2, RRM domain, GST-SBP tag (RBFOX2, Homo sapiens, UniProt O43251-10, residues 100-194)
Method: RNA Bind-n-Seq
Form: RNA
Sample: in vitro
Tested at: 365 nM
Notes: natural RNA segment, single round, ends assumed
Relative to: no-protein control
Reading: higher = stronger binding
Target sequence (chain): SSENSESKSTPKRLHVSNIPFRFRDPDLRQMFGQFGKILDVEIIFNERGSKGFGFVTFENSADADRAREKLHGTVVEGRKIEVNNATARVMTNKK
`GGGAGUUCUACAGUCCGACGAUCAGUAGUGACAAGUCGUGUGUCGGAAUUGGAUUUGAGAACACUCUGAAUGACCCCUGGAGGCCGAGGGGGCAGGCUUCGGGCGUGAACUGAACUCCAGACCCCUCUUUGUGUGGAAUUCUCGGGUGCCAA`: “RBNS enrichment (R)” 1.23.
Under “RBNS enrichment (R)”, `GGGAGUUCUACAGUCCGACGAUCCACUUGAUGGUGGUUUCCUGUGUUCCUGUGGCGCUGCUCCUGGGGGGAAGAGUGUGCUCUAGCAGGCCGUGAUCCCAGAGCCAGCAGGAUUGAUGACCAGGGCCCUUCCUUGGAAUUCUCGGGUGCCAA` is recorded as 0.325.
`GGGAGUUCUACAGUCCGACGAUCUGCUUGUCCCCAAAUCACCUAACCCUCAUCCAGGGCUAUUUUGGUGGGCAGGGACUGCCUCCUCCCGGAAUUCCUAAGAUCCGCCCAGCUGCCACCAUUUUCAUUGCUUUUGGAAUUCUCGGGUGCCAA` — result for “RBNS enrichment (R)”: 0.918.
For `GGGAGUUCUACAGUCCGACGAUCUCUGCUGCAGCUUGUGUAAAAGUGGGCAGUACACAAGUACGUCCCAAAGCCUGUGAGCAGUAUACGUGGAUGCUCACCCAUGAGAAGGAGCACACACGCCUCAUUCUCUGUGGAAUUCUCGGGUGCCAA`, “RBNS enrichment (R)” read 0.297.
For `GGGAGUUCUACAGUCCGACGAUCCAGCCCAGGGGGUUCUGCUUAUGUGUCCCCGUGGCUCUCCACAAAAGGGAGCUAGCACCUCUCCAUCCCUUUCUCUUACUGCCAUUGGAAAUUAUUUUAGGGCUGAGAUAUGGAAUUCUCGGGUGCCAA`, “RBNS enrichment (R)” read 0.372.
`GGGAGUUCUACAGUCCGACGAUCUGGGGAGGCCCAGAGUUACCUGCCAUAUCCCACAUAGUGGAGGCGUUCCCGCAGCCGCCACCACUAGCCUCCUUAGGGCUGGCCUUGUCCAAAGAAUGGGGGUGGGAGCGUGGAAUUCUCGGGUGCCAA` — result for “RBNS enrichment (R)”: 0.246.
`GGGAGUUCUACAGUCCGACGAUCGCUGAACGUUCUCUCAGCCCAGAGCAGCAAACACAUGAAAGUCAGAAGUCUCUAAUAUAUCAUUUGUCUUUUUUCCAGUGAGGUAAAAUAAGGCAUAAAUGCAGGUAAUUUGGAAUUCUCGGGUGCCAA`: “RBNS enrichment (R)” 0.677.
`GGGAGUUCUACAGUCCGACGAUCUUCAAUGCCUACCGUCGGCCCACCUGAGCGGUCUUCACCUUUGCCAACUUUGACGGAUUUCUGUGUGGAGAGUUGAGAUUUCUAUUUCCUGUUUUGGUUUAACAGUUUCUUGGAAUUCUCGGGUGCCAA` — result for “RBNS enrichment (R)”: 0.393.
`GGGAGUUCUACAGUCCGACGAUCCAGGACAGUCUGUCUUAAAUUUCAUAUGAGAACUUCUUCCUCCCUUUGAAGAUCUGUCCAUAUUCAGGAAUCUGAGAGUGUUAAAAAAAGGUACCAAUCAUUGAUUUUUCUGGAAUUCUCGGGUGCCAA` — result for “RBNS enrichment (R)”: 0.438.
`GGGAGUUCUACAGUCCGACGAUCUAAAUUAGCAGAACCACAUCCCCAUCUGUUAGGCCUUGGUGAGGAGGCCCUGGGCAAAGAAGGGUCUUUCGCAAAGCGAUGUCAGAGGGCGGUUUUGAGCUUUCUAUAAGUGGAAUUCUCGGGUGCCAA`: “RBNS enrichment (R)” 0.446.
For `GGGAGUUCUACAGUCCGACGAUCAGUAUGUUUGAUUUUUAUCCACAAGAAUGAAUCUGAUUCAGAAUGCUUUUCAGCUGACAUACAGAGCACUAAAUACUUUACGGCAAAUCCAUAGGUCUGAAUCUCUUAAGUGGAAUUCUCGGGUGCCAA`, “RBNS enrichment (R)” read 0.569.
For `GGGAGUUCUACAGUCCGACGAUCUGGUCCUAACCCAGACCCAGGGUCUGGAAGCUUAAUGUUGAGUUGGUGACUCCAGCCUCUUUCUCCUGGAGGUCACAAGAUGAUGAUUGCGUAGAUGUUGCCUGGUGCAAUGGAAUUCUCGGGUGCCAA`, “RBNS enrichment (R)” read 0.703.

Block 3
Target: Histone acetyltransferase KAT6A, both winged helices, GST fusion (KAT6A, Homo sapiens, UniProt Q92794, residues 1-181)
Method: protein binding microarray
Form: double-stranded DNA, one strand shown
Sample: in vitro
Tested at: not given
Notes: 8-mer, flanks averaged, mean of 2 arrays, mostly near background
Relative to: not given
Reading: higher = stronger binding
Residues (chain): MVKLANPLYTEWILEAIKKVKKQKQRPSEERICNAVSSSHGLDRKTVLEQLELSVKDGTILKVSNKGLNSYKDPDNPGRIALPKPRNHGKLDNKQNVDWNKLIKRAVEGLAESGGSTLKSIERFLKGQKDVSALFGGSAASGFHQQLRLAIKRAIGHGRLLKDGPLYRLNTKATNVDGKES
With `ACATCCCT` the E-score was -0.0979.
With `AAGACGAG` the E-score was -0.158.
The E-score of `AGGTTCAA` is reported as -0.0399.
The E-score of `CGAATCGA` is reported as 0.0707.
The E-score of `ATCGCTTA` is reported as 0.0926.
`ACAAACGC` gave an E-score of 0.247.
The E-score of `GATATGGA` is reported as 0.029.
`AGCTAGCT` has an E-score of -0.299.
`GTCAAAGA` has an E-score of -0.135.
For `GCCCGGAA`, the E-score was 0.0566.
`CAAGACAG` has an E-score of -0.269.
With `CACCACTG` the E-score was -0.152.
The E-score of `ATCTGTGA` is reported as 0.00515.
`CCATCCAC` gave an E-score of -0.17.
`AAGACGTA` has an E-score of -0.102.
For `ATTCTTGA`, the E-score was -0.072.
With `ATTAACGA` the E-score was 0.00752.
`AACAATAT` has an E-score of 0.0292.
The E-score of `TAATCATA` is reported as -0.0728.
With `ACCCGGAA` the E-score was 0.183.
The E-score of `ATGATTCA` is reported as -0.0136.
For `GCACACCC`, the E-score was -0.085.

Block 4
Target: ABI1, truncated, D143A, DHFR fusion (Arabidopsis thaliana)
Method: DHFR PCA, deep sequencing
Sample: yeast
Notes: methotrexate growth selection, single substitutions
Added: (+)-ABA 0.0091 µM
Relative to: wild-type fitted maximum
Reading: higher = stronger binding
Parent: PYL1, truncated, DHFR fusion (Arabidopsis thaliana); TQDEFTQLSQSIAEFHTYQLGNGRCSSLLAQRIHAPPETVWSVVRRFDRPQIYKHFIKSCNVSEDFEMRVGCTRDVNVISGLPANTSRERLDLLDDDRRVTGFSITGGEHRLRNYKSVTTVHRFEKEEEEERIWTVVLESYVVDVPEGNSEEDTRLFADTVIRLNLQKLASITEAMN; partner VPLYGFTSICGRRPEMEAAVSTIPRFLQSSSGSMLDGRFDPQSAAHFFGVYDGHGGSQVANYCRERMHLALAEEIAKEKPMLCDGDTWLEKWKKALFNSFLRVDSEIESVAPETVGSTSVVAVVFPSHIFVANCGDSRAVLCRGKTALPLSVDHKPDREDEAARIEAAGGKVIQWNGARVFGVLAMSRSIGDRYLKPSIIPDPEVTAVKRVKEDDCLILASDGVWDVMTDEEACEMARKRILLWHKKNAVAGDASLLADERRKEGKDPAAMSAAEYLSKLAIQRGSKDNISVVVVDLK
For `I162E`, “relative binding score” read 2.65%.
Under “relative binding score”, `K58M` is recorded as 4.12%.
`G71A` — result for “relative binding score”: -1.03%.
For `H110D`, “relative binding score” read 49.6%.
`Y18D`: “relative binding score” -0.324%.
`E14W`: “relative binding score” -1.16%.
For `D65G`, “relative binding score” read 23.9%.
`A13S`: “relative binding score” 23%.
`D144Q`: “relative binding score” -7.11%.
Under “relative binding score”, `C72G` is recorded as -1.72%.
`M68F` — result for “relative binding score”: 5.65%.
`E174C`: “relative binding score” -3.49%.
`I12C`: “relative binding score” -3.91%.
`L91T` — result for “relative binding score”: -6.31%.
For `S80H`, “relative binding score” read 26.5%.
`A30Y`: “relative binding score” 10.6%.
`T17K` — result for “relative binding score”: 5.53%.
`Y18N`: “relative binding score” -1.35%.
Under “relative binding score”, `Q31A` is recorded as -0.574%.
`T173G`: “relative binding score” 0.172%.
`W41F`: “relative binding score” -5.11%.

Block 5
Observed: peptide binding
Form: peptide
Sample: yeast competitive growth
Added: B1-Cln2 chimera
Reading: direction not given
For `QDYERRLLRQIVIQNE`, the enrichment score was -0.509.
The enrichment score of `LKGRRLVFDN` is reported as -0.449.
`ISRLFPPRTPGWHQLQ` has an enrichment score of -2.47.
`GQLVIPLDELTLDTSF` has an enrichment score of 2.35.
With `PLRKAKRARLCSSSSS` the enrichment score was 2.32.
The enrichment score of `CFRCLLFSFSGRSGVE` is reported as -1.28.
The enrichment score of `ESSTVSEEDYFSSHRD` is reported as 0.52.
`KPITLDTTDFQESFVT` gave an enrichment score of 0.807.
The enrichment score of `SFLIEYEFLIPPSLKP` is reported as 0.608.
`TRRRLFVENDSP` gave an enrichment score of -0.397.
With `MNQELLSVGSKRRRTG` the enrichment score was 2.24.
`RSLKLDGLLEEN` has an enrichment score of -0.432.
`RDLFDCDFGDLTPLDF` gave an enrichment score of 1.65.
